Experimental data gathered from unrelated publications.
Compare with care: the assays were run in different laboratories. ± marks the error that the study gave.
Sequence of UniProt P15056 (whole entry, looked up): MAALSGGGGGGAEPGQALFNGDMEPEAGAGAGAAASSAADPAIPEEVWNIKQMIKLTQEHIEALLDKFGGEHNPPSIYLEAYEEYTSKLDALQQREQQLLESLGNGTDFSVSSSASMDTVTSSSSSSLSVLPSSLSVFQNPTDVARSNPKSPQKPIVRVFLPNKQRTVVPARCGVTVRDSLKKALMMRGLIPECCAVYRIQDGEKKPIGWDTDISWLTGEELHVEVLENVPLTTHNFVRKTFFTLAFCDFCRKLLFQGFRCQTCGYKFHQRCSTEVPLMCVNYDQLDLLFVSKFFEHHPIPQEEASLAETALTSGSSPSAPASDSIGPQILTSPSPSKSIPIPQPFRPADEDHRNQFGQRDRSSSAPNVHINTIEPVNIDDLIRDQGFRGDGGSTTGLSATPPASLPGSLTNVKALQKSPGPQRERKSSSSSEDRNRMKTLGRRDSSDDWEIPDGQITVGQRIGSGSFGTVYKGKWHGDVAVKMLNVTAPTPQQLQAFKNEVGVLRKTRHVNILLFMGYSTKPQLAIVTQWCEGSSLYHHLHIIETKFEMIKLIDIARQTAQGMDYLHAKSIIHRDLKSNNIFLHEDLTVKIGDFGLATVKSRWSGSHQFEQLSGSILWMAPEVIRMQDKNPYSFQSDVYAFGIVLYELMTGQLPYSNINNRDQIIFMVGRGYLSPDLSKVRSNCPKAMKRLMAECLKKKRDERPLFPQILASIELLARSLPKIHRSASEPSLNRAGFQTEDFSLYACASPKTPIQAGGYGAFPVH

COc1ccc(C(O)=CC(=O)c2ccc(C(C)(C)C)cc2)cc1.[Ru+2].c1ccc(-c2ccnc3c2ccc2c(-c4ccccc4)ccnc23)cc1.c1ccc(-c2ccnc3c2ccc2c(-c4ccccc4)ccnc23)cc1 — IC50 (HL-60; phototoxicity; light over 450 nm, 29.1 J/cm2): 2.63 µM
C=C(NC(=O)c1csc(-c2nc3c(cc2O)-c2nc(cs2)C(=O)NC(C(C)O)C(=O)NC(=C(C)OC)c2nc(cs2)C(=O)NC2c4nc(cs4)C(=O)NC(COC(=O)c4c5c6c(cccc6n4O)COC(=O)C(OC4CC(C)(O)C(N(C)C)C(C)O4)C2OC5)c2nc-3cs2)n1)C(N)=O (stereo not drawn) — clearance (Sprague-Dawley rat, male, plasma; intravenous infusion, 6 mg/kg single dose): 55.2 mL/min/kg
CC[C@H](C)[C@H](NC(=O)[C@H](CCCCN)NC(=O)[C@H]1CCC[C@@H]1NC(=O)[C@H](CC(C)C)NC(=O)CN)C(=O)N[C@H](CC(=O)N[C@@H](CCCCN)C(=O)N[C@@H](CCCCN)C(=O)N[C@H]1CCC[C@@H]1C(=O)N[C@@H](CC(C)C)C(=O)N[C@@H](CCCCN)C(=O)N[C@H](CC(=O)N[C@@H](Cc1ccccc1)C(N)=O)CC(C)C)[C@@H](C)CC — IC50 (NIH 3T3; cytotoxicity): 9.4 µg/mL
COC1CN([C@H]2CC[C@H]([C@@]3(C)Oc4c(Cl)cc(C(=O)NCc5c(SC)cc(C)[nH]c5=O)c(C)c4O3)CC2)C1 — log2 fold change (RNA-seq, measured: PLSCR4 mouse homolog; mouse, HT-1376 xenograft, whole blood; dose not given; reference: vehicle): 1.33
CC(=O)NCCOCCNC(=O)c1cc(C(=O)N2CCNCCNCCNCC2)c(O)c(C(=O)N2CCNCCNCCNCC2)c1 — IC50 (WI-38; cell growth or viability, MTT; 24 h): > 1000 µM
O=C(OCc1ccc(O[C@@H]2O[C@H](COC(=O)c3ccc(O)cc3)[C@@H](O)[C@H](O)[C@H]2O)cc1)c1ccc(O)cc1 — IC50 (MDA-MB-231 breast cancer; cell viability, MTT; DMEM with 10% FBS; 48 h): > 200 µM
C[C@@H]1CC[C@]2(C(=O)O)CC[C@]3(C)C(=CCC4[C@@](C)(CCC(=O)O)C(C(C)(C)O)CC[C@]43C)C2[C@H]1CO (stereo partly drawn) — IC50 (RAW264.7; NO release, inhibitor, Griess; LPS-stimulated): > 100 µM
O=C(Nc1cc(OCCN2CCCC2)c2ccccc2n1)c1cccc(C(=O)Nc2cc(OCCN3CCCC3)c3ccccc3n2)n1 — IC50 (WI-38; cell growth or viability, ATP luminescence; 72 h): 3.1 µM
CCOc1cncc(-c2ccc(NC(=O)C3(c4ccnc(NS(=O)(=O)C5CC5)n4)CCOCC3)nc2)n1 — IC50 (CHP-212; cell growth or viability, ATP luminescence; 72 h): 10 µM
CC[C@H](C)[C@H](NC(=O)[C@H](CCCCN)NC(=O)C[C@H](Cc1ccccc1)NC(=O)[C@H](CC(C)C)NC(=O)CN)C(=O)N[C@H](CC(=O)N[C@@H](CCCCN)C(=O)N[C@@H](CCCCN)C(=O)N[C@H](CC(=O)N[C@@H](C)C(=O)N[C@@H](CCCCN)C(=O)N[C@@H](CO)CC(=O)N[C@@H](Cc1ccccc1)C(N)=O)[C@@H](C)CC)[C@@H](C)CC — IC50 (NIH 3T3; cytotoxicity): 42.2 µg/mL
Cc1ncsc1-c1ccc(C(C)NC(=O)C2CC(O)CN2C(=O)C(NC(=O)CCCCCCCCCCN2CCCC(Nc3ncc(Cl)c(Nc4ccccc4S(=O)(=O)C(C)C)n3)C2)C(C)(C)C)cc1 (stereo not drawn) — log2 fold change (22Rv1; RNA-seq, measured: RGS14 mRNA; concentration not given; reference: DMSO): -1.37
Cc1nn(-c2cccc(N)c2)c(=O)c2cnc(Nc3ccc(N4CCNCC4)cc3)nc12 — IC50 (BRAF (Homo sapiens, UniProt P15056); enzyme activity, inhibitor): > 10 µM
Cn1ncc(-c2ccc3c(=O)[nH]nc(CN)c3c2)c1-c1c(F)c(Cl)cc(OC2CC2)c1C#N — IC50 (NCI-H322; cell viability, CellTiter-Glo; 120 h): 0.4 µM
O=C(c1cc(Cc2n[nH]c(=O)c3ccccc23)ccc1F)N1CCN(C(=O)C2CC2)CC1 — IC50 (DLD-1; cell growth or viability): > 100 µM
CS(=O)(=O)c1sc(NC(=O)Nc2ccc(Cl)cc2)c2c1C=CCC2 — IC50 (PANC-1 NUPR1 wild-type clone; cell viability; 72 h): 8.2 µM
C=CC(=O)Nc1cc(Nc2nccc(-c3cn(C)c4ccccc34)n2)c(OC)cc1N(C)CCN(C)C — IC50 (Ba/F3 EGFR; cell growth or viability; 72 h): 0.221 µM
O=C(N/N=C/c1cc[n+](CC2CC2)c2ccccc12)c1cncc(C(=O)N/N=C/c2cc[n+](CC3CC3)c3ccccc23)n1 — ΔTm (MYC parallel G4 DNA; FRET melting; 1 µM, DNA 0.2 µM, together with: duplex DNA competitor 10 µM): 11.4 ± 0.3 °C
CC(=O)OC1CCC2(OC1)OC(=CC#CC#CCO)C(OC(=O)CC(C)C)C2O (stereo not drawn) — IC50 (RAW264.7; NO release, inhibitor, Griess; LPS-stimulated): > 50 µM
COc1cc(-c2cn(C)c(=O)c3cnccc23)c(OC)cc1Cn1ccnc1 — IC50 (MOLM-13; cell growth or viability, ATP luminescence): 4 µM
Cc1cc(C)cc(COc2cc3c(cc2OCc2cc(C)cc(C)c2)[C@@H]2C[C@](O)(Cc4cn(Cc5ccc(F)cc5)nn4)C[C@H](C)N2CC3)c1 (single isomer, unassigned) — IC50 (ASPC1; cell growth or viability, MTT): 0.387 µM
C=CC(=O)N1CCCC(n2c(=O)c3ncccc3n(Cc3ccc(Oc4ccccc4)cc3)c2=O)C1 (stereo not drawn) — IC50 (OCI-Ly3; cell growth or viability, MTT; 72 h): 10 µM
CNS(=O)(=O)Nc1nccc(Cc2c(C)c3ccc(Oc4ncccc4F)cc3oc2=O)c1F — IC50 (MDA-MB-361; cell viability; 7 days): > 1 µM
NC(=O)c1ccc(-c2ccccc2Cl)c2c3c([nH]c12)CCC(N)C3 (stereo not drawn) — IC50 (A-375; cell growth or viability; 96 h): 0.0318 µM
O=C(N/N=C/c1cc[n+](CC2CC2)c2ccccc12)c1ccc2ccc(C(=O)N/N=C/c3cc[n+](CC4CC4)c4ccccc34)nc2n1 — ΔTm (MYC parallel G4 DNA; FRET melting; 1 µM, DNA 0.2 µM): 15.8 °C
CC[C@H](C)[C@H](NC(=O)C[C@H](CCCCN)NC(=O)[C@H](CCCCN)NC(=O)C[C@@H](NC(=O)[C@@H](NC(=O)C[C@H](CCCCN)NC(=O)[C@H](Cc1ccccc1)NC(=O)C[C@H](CC(C)C)NC(=O)CN)[C@@H](C)CC)[C@@H](C)CC)C(=O)N[C@@H](C)CC(=O)N[C@@H](CCCCN)C(=O)N[C@@H](CO)CC(=O)N[C@@H](Cc1ccccc1)C(N)=O — IC50 (NIH 3T3; cytotoxicity): > 128 µg/mL
Cc1cc(C)cc(NC(=O)N(Cc2ccc(C(=O)NO)cc2)OCc2ccccc2)c1 — IC50 (MOLM-13; cell viability; 72 h): 1.7 ± 0.069 µM
CC(C)(C)c1cnc(CSc2cnc(NC(=O)C3CCN(C(=O)CCCCCCN4Cc5cc6c(cc5C4)C(=O)N(C4CCC(=O)NC4=O)C6=O)CC3)s2)o1 (stereo not drawn) — IC50 (U-87 MG glioblastoma; cell viability, MTT): 0.0794 ± 0.002 µM
Cc1ccc([N+](=O)[O-])cc1S(=O)(=O)N(C)/N=C/c1cnc2ccc(Br)cn12 — IC50 (NCI-H322M; cell growth or viability): 1.5 µM
CC[C@H](C)[C@H](NC(=O)[C@H](CCCCN)NC(=O)[C@H](Cc1ccccc1)NC(=O)[C@H]1CCC[C@@H]1NC(=O)CN)C(=O)N[C@H](CC(=O)N[C@@H](CCCCN)C(=O)N[C@@H](CCCCN)C(=O)N[C@H]1CCC[C@@H]1C(=O)N[C@@H](C)C(=O)N[C@@H](CCC(=O)O)C(=O)N[C@@H](CO)C(=O)N[C@H](CC(N)=O)Cc1ccccc1)[C@@H](C)CC — IC50 (NIH 3T3; cytotoxicity): 102 µg/mL
COC(=O)N1c2ccc3c(nc(Cc4ccccc4)n3[C@@H]3CCC[C@@H](C(=O)O)C3)c2CC[C@@H]1C — IC50 (HCC1428; cell growth or viability, ATP luminescence; 10 days): 0.66 µM
CC(C)c1ccc(N(C)c2ccc3c(c2)OCC[C@H]3CNc2cnccc2C(=O)O)cc1 — IC50 (SW1417; cell viability, CellTiter-Glo; 7 days): ≥ 10 µM
COc1cc(-n2cc3cc(F)cc(C(N)=O)c3n2)cc(Cl)c1C1CC(O)(CCO)Cc2ccccc21 (stereo not drawn) — IC50 (Caco-2; cell growth or viability, MTT; 72 h): 0.15 µM
CN1CCC(N[C@H]2CCc3[nH]c4c(C(N)=O)ccc(-c5ccccc5Cl)c4c3C2)CC1 — IC50 (U-937; cell growth or viability): 0.22 µM

For quick reference, copied from above:
C[C@@H]1CC[C@]2(C(=O)O)CC[C@]3(C)C(=CCC4[C@@](C)(CCC(=O)O)C(C(C)(C)O)CC[C@]43C)C2[C@H]1CO (stereo partly drawn) — IC50 (RAW264.7; NO release, inhibitor, Griess; LPS-stimulated): > 100 µM
COc1cc(-c2cn(C)c(=O)c3cnccc23)c(OC)cc1Cn1ccnc1 — IC50 (MOLM-13; cell growth or viability, ATP luminescence): 4 µM
